# Measurements pooled from the literature.
# Every numbered part comes from another study and shows a few of its results, in no order. Positions count from the first letter of the parent shown.

# Block 1
# Target: RNA binding protein fox-1 homolog 2, RRM domain, GST-SBP tag (RBFOX2, Homo sapiens, UniProt O43251-10, residues 100-194)
# Method: RNA Bind-n-Seq
# Molecule type: RNA
# Matrix: in vitro
# Tested at: 365 nM
# Notes: natural RNA segment, single round, ends assumed
# Relative to: no-protein control
# Reading: higher = stronger binding
# Residues (chain): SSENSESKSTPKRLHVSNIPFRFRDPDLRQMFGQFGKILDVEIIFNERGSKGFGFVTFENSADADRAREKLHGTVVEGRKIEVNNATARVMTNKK
Strand,RBNS enrichment (R)
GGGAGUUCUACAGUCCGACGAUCUUUGGCUGGCUUUCUAUCCACAAACCUAAAGCAGAGCUUGAAUGAUAAAUAGCAAGAAUGGAUGUGUAAUGUGACAAUCAAGGCAGAUAUUUGUUCUAGUUGGAAAGACGUGGAAUUCUCGGGUGCCAA,1.06
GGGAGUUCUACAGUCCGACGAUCAGGUGGAAAAGUAGCAGCUGUAUCGGGCUUCCUCAUCCUGCCUGUUCCCCCACACCUGCCAGGAUAUGGACAUCUUGGGAUAUCUCUUUACCACUGAAGUAGAAUUGAUUUGGAAUUCUCGGGUGCCAA,0.723
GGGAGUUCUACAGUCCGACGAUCGAUCAAAUCAAGACACAUUUCAUUUUACAUUUUAUUAUUGUACAGUUUUUGUUUCGGAUGAUGAUCACAGCAAUCUUUAUUCUAUACAUUUUAUGUGAACUUUUUUAAUGUGGAAUUCUCGGGUGCCAA,0.601
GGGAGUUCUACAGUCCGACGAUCUGGUUGCUGGAGGAGGCCAGUGUAGAGCCAGUGAGAGAACUAGGAAUGACACUCAGGUUCACUGUGGAAAACUGUUCUUGGGACUGUCUCAACUGUGCAAAAAACAAAAGUGGAAUUCUCGGGUGCCAA,0.77
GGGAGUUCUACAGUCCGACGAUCAAUCAUAGCAUCCCAUGGUUUUGUGGUAUCUGGGUUUGUGUAAUGUUGUUGACACCUGUAUUUAAUGACACCUGCACACCUUUCAAAUAAAAACAUGUUUUUCUUCAAGUUGGAAUUCUCGGGUGCCAA,0.596
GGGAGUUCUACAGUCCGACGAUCACUGGUGAAGUGAGUAGGGAUUGUUCCCAGGCAAGCAGCCGUACUCGUCAUGUUUUCUGCGGAAAAGAACAGGCAGGAAAGCUGCUCCGAGCAGUUAGAGAAAAGCCGCCUGGAAUUCUCGGGUGCCAA,0.27
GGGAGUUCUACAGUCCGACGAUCGCCUAUGUUGGGGGGGACCCUGCCUCAGCUGACCCGGCCUCUCUGCCCCACCCAAGCCCAAACUUGGUUUCUGUGAGAAUAGUGGAGGAAGGUGAGAUGGCCAGUUUGAAUGGAAUUCUCGGGUGCCAA,0.421
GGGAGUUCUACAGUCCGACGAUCACUAAACAGUGGAUUCCUCUCGUGUUACAGUUUUGAGUGAAUUAUUAAAGAAGUUAAAAUGCAAUAACUUUUUGGUCUCCUGUCUCAUUUUGAAUGAAUUUGAUGUGUUUUGGAAUUCUCGGGUGCCAA,1.25
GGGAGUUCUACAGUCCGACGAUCGGGCAACUUCCUGAGAUGAAUGAAGUACAGGAAAAUGAAAGAUUAGAGGGAUGUGUGACGGAAUACAGUAUUAGGGUUCACCAUAGCAGACUCUGCGCUUUAUCUGUCUAUGGAAUUCUCGGGUGCCAA,0.855
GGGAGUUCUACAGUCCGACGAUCGCAUGGUUAUUAGCACUUUAUGCUGGGAGCCAGCAGAGUGGUGGACUUCCGUGCUGACUAAGCUGUGGCUCAGCAUUCCAUUGCACACUGGUGAAGUGAGUAGGGAUUGUUGGAAUUCUCGGGUGCCAA,0.758
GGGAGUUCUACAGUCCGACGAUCUGAAAUAAAUAGUGCAAAUGUGUAGGAAUAAUUAGAUUGCAGUUUCCAUACAUCCGCAAGCCCAGUUAGUUGAAACUGCAAUCAAUAUUUACCUUACAACCUUUCCAUUAUGGAAUUCUCGGGUGCCAA,1.26
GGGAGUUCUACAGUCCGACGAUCCUGCAAGCUGCAUCGUGCAACCUCUUUGGUGCCAGUGUGGGCAAGGGCUCAGCCUCUCUGCCCACAGAGUGCCCCCACGUGGAACAUUCUGGAGCUGGCCAUCCCAAAUUUGGAAUUCUCGGGUGCCAA,0.421

# Block 2
# Target: CCNE2, cyclin fold, Cln2 fusion (human)
# Method: yeast growth competition, sequencing
# Matrix: yeast
# Notes: strong parent motif
# Relative to: not given
# Reading: higher = stronger binding
# Starting sequence: TICRR docking peptide (human); TKVRRNLFNQELL; partner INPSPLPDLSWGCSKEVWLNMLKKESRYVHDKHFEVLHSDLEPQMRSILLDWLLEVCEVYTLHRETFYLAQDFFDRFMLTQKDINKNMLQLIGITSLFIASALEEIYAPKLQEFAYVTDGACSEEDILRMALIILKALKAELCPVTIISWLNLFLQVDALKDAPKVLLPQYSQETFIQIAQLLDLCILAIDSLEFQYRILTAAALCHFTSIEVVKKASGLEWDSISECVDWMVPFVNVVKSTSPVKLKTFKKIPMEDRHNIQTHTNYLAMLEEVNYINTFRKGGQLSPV
Change,normalised enrichment score
T1A,1.54
F8L,0.987
V3A,-0.0669
N9A,1.35
L12A,0.635
L7A,-0.186
E11A,1.95

# Block 3
# Target: RING finger protein unkempt homolog, zinc fingers 1-6, GST-SBP tag (UNK, Homo sapiens, UniProt Q9C0B0, residues 30-357)
# UniProt Q9C0B0, sequence (30-357, looked up): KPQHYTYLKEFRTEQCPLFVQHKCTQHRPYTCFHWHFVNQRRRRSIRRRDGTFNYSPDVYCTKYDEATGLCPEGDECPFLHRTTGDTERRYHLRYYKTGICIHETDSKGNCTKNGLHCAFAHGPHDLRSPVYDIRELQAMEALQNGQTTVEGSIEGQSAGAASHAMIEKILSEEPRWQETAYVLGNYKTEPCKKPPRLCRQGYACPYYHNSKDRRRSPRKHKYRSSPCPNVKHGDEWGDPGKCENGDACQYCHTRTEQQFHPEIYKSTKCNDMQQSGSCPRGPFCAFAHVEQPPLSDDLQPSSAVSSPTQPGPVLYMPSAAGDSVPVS
# Method: RNA Bind-n-Seq
# Molecule type: RNA
# Matrix: in vitro
# Tested at: not given
# Notes: RNA with constant flanks, human and mouse sites, ends assumed
# Relative to: input RNA pool
# Reading: higher = stronger binding
Strand,bound/input enrichment [ratio]
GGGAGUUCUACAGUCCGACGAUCGCCUACCUGUAUUCUUAUGUGAUGCCCCAGGCCAUCCGGGACAUGGUGGAUGAAUACAUCAACUGUGAGGACAUUGCCAUGAACUUCCUUGUCUCCCACAUCACUCGGAAGCCCCCCAUCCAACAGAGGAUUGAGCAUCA,0.284
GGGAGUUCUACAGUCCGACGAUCAAAACUAUUCUACAGUGCAAAAAAUACCAGCGAACUCCUGUUUAAGAAAAAUAUCCUUGAUUUAGUAAAUGAAUUUCCUGAGAAGAUUGCAUGCAGUUUGCAUGUUACAAAACAGACUACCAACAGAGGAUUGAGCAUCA,8.41
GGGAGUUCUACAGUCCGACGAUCUCCAUCACGAAGAAUCAAUGGCUGUUAACACCUAGCAGGGAAUAUGCCACCAAAACAAGAAUUGGGAUCCGGCGUGGGAGAACUGGCCAAGAACUCAAAGAGGCAGCAUUGGAACCAUCGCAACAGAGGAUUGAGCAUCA,0.104
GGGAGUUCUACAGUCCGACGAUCUAUUUUCUAUUUAGUCUGUAUAUUUUGUUCUUCAUAGUCUGUUUUUUCUAGCAUGCUUGAUUUAGGAGAGAAUAAAGGGCUAUAUAAUAAUAAAUCCAGAUUUCCGGAUAAGAAUAUUGCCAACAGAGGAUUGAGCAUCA,4.42
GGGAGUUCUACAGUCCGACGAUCCAGACUGGCAACUGUUUUGUAGCAAGAGCCAUAGGUAGCCUUACUACUUGGGCCUCUUUCUAGUUUUGAAUUAUUUCUAAGCCUUUUGGGUAUGAUUAGAGUGAAAAUGGCAGCCAGCAACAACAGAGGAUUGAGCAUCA,0.767
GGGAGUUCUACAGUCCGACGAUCGACCCAAGUAAUCCAAUUCGAAGACCAAUUUCAGCAGACAGCGCCAUCAUGAAUCCAGCUAGCAAAGUAAUUGCACUGAAAGCUGGGAAAACUCUUCAGAUUUUUAACAUUGAAAUGAAACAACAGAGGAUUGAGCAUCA,0.414
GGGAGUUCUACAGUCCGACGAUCUAAGCAUAUUAACAUUUUUAAGCAAAAGAUACGUUAACAGUGACCUUUGGUUAUCCACAGUAGCAAGAGUAAAGCACAGAUCAUUGAAAUCCAUAGAUAAUCAGUGAAUCAACUUUCCUACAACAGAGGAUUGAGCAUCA,0.159
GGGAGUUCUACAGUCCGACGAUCUACAAUGUAUUUGUGUAAUUUAUAGAAGUAAAAUCUAGAUGUUGAGACCUGUUUGGUCUAAUAGAUGUGGAUACAGUUUAUUUUACUUGAAAUUUUGUUGUCUACUUUGUGUGUUUAACGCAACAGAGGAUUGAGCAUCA,1.49
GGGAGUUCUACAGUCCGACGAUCGUCCACGGCGUCCCGGCUCCUGGCGACGCCAAGAGGGCGAAGAUGUGGCUGAAGCUGUUUUUCUUGCUCCUGUAUUUCCUGGUCCUGUUCGUCCUGGCCAGGUUUUUUGAGGCCAUUGUGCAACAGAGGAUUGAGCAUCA,0.113
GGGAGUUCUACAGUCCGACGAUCAGGUCCAGACACGGGAACGGAGGCCUGGCUGCGUUGCCCUAUCUCCGUCUCCGCCACCCACUUAGCGUUUUAGGCAUCAAUUACCAGCAGUUUCUCCGCCACUAUCUGGAAAAUUACCCGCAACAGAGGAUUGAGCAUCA,3.65
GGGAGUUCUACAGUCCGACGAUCAUGAAAAUGUUAUUUAAUCUUUGUCUCUGUAUUUUGAUACUUGAAUGACUUUCCCUUUUGUUUUACUGUAUAUAAAAUUGUUAAUCUGUCUGAUUUUGUCUGAAUUAUAAACACUUUGAGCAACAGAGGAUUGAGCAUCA,0.178

# Block 4
# Target: Interferon regulatory factor 3, full length, phosphomimetic (IRF3, Homo sapiens, UniProt Q14653, residues 1-427, S386D/S396D/S398D/S402D/T404D/S405D)
# Method: protein-binding microarray
# Molecule type: double-stranded DNA, one strand shown
# Matrix: in vitro
# Tested at: 2540 nM top
# Notes: 60-bp whole probe
# Together with: salmon DNA 0.4 mg/ml
# Relative to: random background probes
# Reading: higher = stronger binding
# All sequences stand within: GCCTAGCAC … GTCTTGATTCGCTTGACGCTGCTG
# Construct (chain): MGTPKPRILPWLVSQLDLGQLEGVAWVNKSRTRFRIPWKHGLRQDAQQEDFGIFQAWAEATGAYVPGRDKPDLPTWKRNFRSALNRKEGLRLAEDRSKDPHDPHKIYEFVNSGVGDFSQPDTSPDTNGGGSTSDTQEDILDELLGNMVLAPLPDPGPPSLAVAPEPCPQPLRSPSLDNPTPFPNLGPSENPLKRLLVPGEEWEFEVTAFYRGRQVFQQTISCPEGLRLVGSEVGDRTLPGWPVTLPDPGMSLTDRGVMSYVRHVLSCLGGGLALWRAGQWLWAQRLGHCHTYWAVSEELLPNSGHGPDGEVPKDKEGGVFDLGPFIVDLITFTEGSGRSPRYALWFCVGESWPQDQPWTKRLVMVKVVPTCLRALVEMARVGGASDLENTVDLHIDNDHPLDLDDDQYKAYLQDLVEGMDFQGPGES
Strand,fitted relative affinity [z-score]
TTAGATTGCGGGACTGGATTAGTGCTA,-0.326
GACGAACTGTGACTGGAGACGTGCTAG,-0.406
AAACCTCACAGTTTGTAAATGTGCTAG,0.28
TTAGGTTTTCTTATCCTTTAGTGCTAG,2.62
TCAATTCTCTGTTTATGACTGTGCTAG,1.67
GACGGTATCGGGTATTGGGACGTGCTA,1.43
CATTATATTTTAATCACATAGTGCTAG,1.55
TCAGGTTCTCTTTTATTACTGTGCTAG,2.12
TCATTTTTCTACTTCTGACTGTGCTAG,2.17
TTAGATAACAGACTGGATTAGTGCTAG,-0.238
CAGGCAGGAGAAGTGAATGAGTGCTAG,-0.702
TTAGGGCTCGGTCTCGGTTAGTGCTAG,-0.154
TCACGGGCTTCTTTTTCTACTGTGCTA,-0.349
GACGGACTGCTTTTCCTGACGTGCTAG,-0.117
TCATTTGTCATCTATAATACTGTGCTA,1.16
GACGGACTGGACACTGGGCACGTGCTA,-0.805
TTAGGACTGGGGTTTCTGTTAGTGCTA,0.201
TTAGATTTCAGACTGGATAAGTGCTAG,0.781
TCAATCATTGCTTTCTCACTGTGCTAG,0.59
GACGATCTCAGACCGGAGACGTGCTAG,0.407
TCTGATTTTGCTTTCATTTAGTGCTAG,1.49
GATGGTTTCGGGTTTCGGGACGTGCTA,5.57
TTAGGGTTCCTTTTCCTTTAGTGCTAG,6.71
GACGATCTCAGTCTCGACACGTGCTAG,0.708
TCACCTCCCTGTTTCCAACTGTGCTAG,2.08

# Excerpt of the above (block 3):
Strand,bound/input enrichment [ratio]
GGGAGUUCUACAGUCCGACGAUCAAAACUAUUCUACAGUGCAAAAAAUACCAGCGAACUCCUGUUUAAGAAAAAUAUCCUUGAUUUAGUAAAUGAAUUUCCUGAGAAGAUUGCAUGCAGUUUGCAUGUUACAAAACAGACUACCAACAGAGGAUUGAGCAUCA,8.41
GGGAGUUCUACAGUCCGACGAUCAUGAAAAUGUUAUUUAAUCUUUGUCUCUGUAUUUUGAUACUUGAAUGACUUUCCCUUUUGUUUUACUGUAUAUAAAAUUGUUAAUCUGUCUGAUUUUGUCUGAAUUAUAAACACUUUGAGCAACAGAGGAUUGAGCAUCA,0.178
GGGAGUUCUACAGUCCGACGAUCAGGUCCAGACACGGGAACGGAGGCCUGGCUGCGUUGCCCUAUCUCCGUCUCCGCCACCCACUUAGCGUUUUAGGCAUCAAUUACCAGCAGUUUCUCCGCCACUAUCUGGAAAAUUACCCGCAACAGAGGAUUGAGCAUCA,3.65
